Experimental data collected from several papers.
Numbered parts are unrelated; each lists some results of a single study.

Set 1
Target: Sal-like protein 4, full length isoform B (SALL4, Homo sapiens, UniProt Q9UJQ4-2, residues 1-616)
Technique: universal PBM
Form: double-stranded DNA, one strand shown
Matrix: in vitro
Concentration: not given
Notes: 8-mer, flanks averaged, mean of replicates
Direction: higher = stronger binding
Target sequence (chain): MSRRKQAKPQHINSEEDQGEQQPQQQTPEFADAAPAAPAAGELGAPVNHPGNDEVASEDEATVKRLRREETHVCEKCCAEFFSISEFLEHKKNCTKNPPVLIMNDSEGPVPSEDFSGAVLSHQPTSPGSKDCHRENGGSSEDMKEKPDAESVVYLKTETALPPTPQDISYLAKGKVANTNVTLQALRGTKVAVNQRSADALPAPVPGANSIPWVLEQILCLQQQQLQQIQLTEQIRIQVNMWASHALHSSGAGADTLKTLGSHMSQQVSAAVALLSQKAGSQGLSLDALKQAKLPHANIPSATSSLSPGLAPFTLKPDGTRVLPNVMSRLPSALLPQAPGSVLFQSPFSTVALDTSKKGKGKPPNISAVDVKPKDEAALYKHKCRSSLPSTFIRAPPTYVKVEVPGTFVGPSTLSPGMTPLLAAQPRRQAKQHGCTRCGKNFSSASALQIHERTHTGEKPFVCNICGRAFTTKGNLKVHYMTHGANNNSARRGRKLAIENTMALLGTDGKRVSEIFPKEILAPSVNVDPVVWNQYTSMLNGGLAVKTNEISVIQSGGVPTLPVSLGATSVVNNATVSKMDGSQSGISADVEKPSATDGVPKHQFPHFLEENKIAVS
Strand | E-score
CTTGGTTA | 0.0885
TGCGTCCA | -0.168
AGGGGCCA | -0.386
GCCAAAAA | 0.186
CGGCTCAG | -0.311
GTCTCAAC | 0.0167
CCACTTGC | -0.107
ACACTGAC | -0.0808
CAGAATCG | -0.126
CAGCTGAA | -0.0702
CCCCCGTA | -0.189
GACTCCAC | -0.291
CACACACA | 0.00147
AGAGGAAC | -0.0383
GCAGCGAA | -0.155
CTGTTCTA | 0.106
TACGGCTA | -0.00286
AAGGTTCC | 0.0985
AACACACG | 0.0631
ATAGAGTC | -0.0701
ACTAGTTC | 0.145
ATGTTAAA | 0.322
AATCGTCA | 0.155
GATAAAGA | 0.187

Set 2
Target: RNA binding protein fox-1 homolog 2, RRM domain, GST-SBP tag (RBFOX2, Homo sapiens, UniProt O43251-10, residues 100-194)
Technique: RNA Bind-n-Seq
Form: RNA
Matrix: in vitro
Concentration: 365 nM
Notes: natural RNA segment, single round, ends assumed
Reference: no-protein control
Direction: higher = stronger binding
Shared flanks, not repeated: GGGAGUUCUACAGUCCGACGAUC … UGGAAUUCUCGGGUGCCAA
Construct (chain): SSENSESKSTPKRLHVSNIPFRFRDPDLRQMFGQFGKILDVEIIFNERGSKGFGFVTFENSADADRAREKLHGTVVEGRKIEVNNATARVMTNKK
Strand | RBNS enrichment (R)
GGAGACUAUUGUCUCCUAAACCCAGGACUAGAGUUCCCUCGUACUGUCACUCCUUUGGUCAUUAAAUGCACUGGGCUUGCCCGCACUUUGGCCUUCCUAGAACACUGCUU | 0.333
ACGGGAGCCCUUCUCCCUGACCCUGGGCUGCUUCCUGGGGGCUCUCCAGACCCCUCUCUAGGACCAAGUCACCCGUCGUGCUGGGAGUGUGGAUUCUAGCAAAAGAGCUG | 0.262
GGGGCCGCCGCGCAAGGGGGCGACGCAUAAAGGCCUGCUGGCUUGGGGCGCCUGCCUCCCUGCUCCUCUGUCCUCGCACAGCGAACCUGGGCUCCUGCCCAGGACAGGCA | 0.412
GCUAUUUUUACCUAUGUAUUUAUCGUUCUUGAUCAUAAGCCGCUUAUUUAUAUCAUGUAUCUCUAAGGACCUAAAAGCACUUUAUGUAGUUUUUAAUUAAUCUUAAGAUC | 0.599
AAUCUUCACUUAGCCUCAGACUUCAGGUGCAUUGACCCAUCCAUUAGUAAAGCUGCUUUGAACCAUCUUCUGGCCAUUGUGUCUUUUAUCUACUGGGAAUUGGAAUGGUG | 0.291
CCUGAUCCCUGACUUUGGGGAACCCAGAUCUUUCCUUUGAUUUUUGCUCCUAAUGAUCAAAACCCCAAUUGCAACCAUGUGGCAAGUGGCCAGCUGAGCCCAGGUUACUU | 0.392
GGCCUGAUGAUGGUGGGUGGGUGGGAUGAGUACCCCCUCAAACCCUGCCCUCCUUAGACCUGAGGGACCCUUCGAGAUCAUCACUUCCUUGCCCCCAUUUCACCCAUGGG | 0.183
UACUUGAGCUUUUGUGAUUCAAAGUUCAGGGGUGGUAAGGACUCUGGUACCAGGGAAGAGGGAGAAUUAAUUUAUUGUGCAAAUGCUGGUAUUUCUUACAUGAUUUUUUG | 0.721
AUCACUUUUUCAAGGCUGGGUAGAGACAAGUUUCUCCUCGUAACUUUGACCUCUCCCACUCUCCAAAUGUAAUCUGGACCUCAUUGCUUUCAAGGUCAGCUUCCCCAUAG | 0.487
GUUGGCUCGCUUUCUGUGUCUGUUAAAUGAAUGUCAUAUGUAAAUGCUAAACUAAGUCAACAGUGUCUCAGAACUGAAUAACUGCAGUGACUUGAUGCUCUAAAUCAUUG | 0.541
GUGCUGUACACUCAGCAUAUGUGCCUCUUGUAUGCAAGGACUACUGAUUGAAGUCUGUUUUGCUGUGUCUGGUUAUGUUGUCUGCACUUUUAUGAAAUCACUACAAUAGA | 1.7
AGGCUGUGCCUGCCCUGCCAGUGCAGGGAGCUGUCCCGCACUUGAGCAGUGUCAGAGAUUCUUGCUUUAACUUUGAUUUGCUUUCUCCCAUUCUUGGCCCUGGUCACUAG | 0.399

Set 3
Target: Ras GTPase-activating protein-binding protein 1, C-terminal RGG region (G3BP1, Homo sapiens, UniProt Q13283)
UniProt Q13283, sequence (whole entry, looked up): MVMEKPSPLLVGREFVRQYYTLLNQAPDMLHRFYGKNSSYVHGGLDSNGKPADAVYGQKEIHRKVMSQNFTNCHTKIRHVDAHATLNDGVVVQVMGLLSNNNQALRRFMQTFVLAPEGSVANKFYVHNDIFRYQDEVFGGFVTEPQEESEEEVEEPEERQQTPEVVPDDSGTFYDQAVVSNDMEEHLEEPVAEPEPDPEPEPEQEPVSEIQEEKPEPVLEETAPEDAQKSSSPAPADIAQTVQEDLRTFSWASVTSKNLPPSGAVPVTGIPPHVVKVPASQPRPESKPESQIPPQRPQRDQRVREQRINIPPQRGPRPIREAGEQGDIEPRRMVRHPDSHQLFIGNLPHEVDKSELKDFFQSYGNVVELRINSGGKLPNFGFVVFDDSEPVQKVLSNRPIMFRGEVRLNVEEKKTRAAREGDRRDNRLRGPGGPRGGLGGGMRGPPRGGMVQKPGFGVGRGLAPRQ
Technique: RNA Bind-n-Seq
Form: RNA
Matrix: in vitro
Concentration: 1 µM
Notes: whole 134-nt RNA, ends assumed
Added: 150 mM KCl
Reference: input library
Direction: higher = stronger binding
Shared flanks, not repeated: GGGAGUUCUACAGUCCGACGAUC … UGGAAUUCUCGGGUGUCAAGG
Strand | log2 enrichment
UCAAGUCCUGUGCUACACAUCGUAUGUACCGAAUCGGGAAGGGAAGGGAAGGGGAAAGUAUUAUGUUACGCCGUUCGGAUCUGCACUUCC | 2.78
UCCUGUGCUACACAUCGUAUGUACCGAAUCGGGGCCCCCCGGCCCCCCGGCCCCCCGGGGAAAGUAUUAUGUUACGCCGUUCGGAUCUGC | -0.81
AGUCCUGUGCUACACAUCGUAUGUACCGAAUCGGGAAAAGGGGAAAAGGAAAAGGGGAAAGUAUUAUGUUACGCCGUUCGGAUCUGCACU | -0.377
UCCUGUGCUACACAUCGUAUGUACCGAAUCGGGGUUUUUUGGGGUUUUUUGGUUUUUUGGAAAGUAUUAUGUUACGCCGUUCGGAUCUGC | -0.517
UGGGAGGUGGAUUUUGUUUAUUUUUUUAGCUCAUUUCCAGGGGUGGGAAUUGUUUUUUAAUAUGUGUCAUGAAUAAAGUUGUUUUUGAAA | 3.76
UGUCUGGUGACAAGGAAGAGGAUGCUCCUCAUAGAGAAGAUUACUUUGAGCCCAUUUCUCCUGAUCGGAAUUCUGUUCCCCAGGAAGGGC | -2.11
CUCAAGUCCUGUGCUACACAUCGUAUGUACCGAAUCGGUGGUGGUUUUUUUGGAAAGUAUUAUGUUACGCCGUUCGGAUCUGCACUUCCA | -0.783
GCAGGAAGUAAAAACAAAUGGAAAUGCUUCGGAUAGUGGCAGGGGUGGGGGUUGCUAAGGAAAGGGUGGGAUGGGAGUGGGUCAAGAGUU | 0.584
UGGCCCUGGUGGCAUGCGGGGAGGAAGAGGUGGCCUCAUGGAUCGUGGUGGUCCAGGUGGAAUGUUCAGAGGUGGCCGUGGUGGAGACAG | 1.96
CUGUGCUACACAUCGUAUGUACCGAAUCGGGGCCCCCCCGGCCCCCCCGGCCCCCCCGGGGAAAGUAUUAUGUUACGCCGUUCGGAUCUG | -1.98
CACAGACAACACGCACCCACACAGACACAGAGGGAUGGGGUUGGGAUGGGGACAGGGUGCACAGCAGGGCGGGGUAGGACCCCAGCCCCU | -0.0483
UGCCUCUGCGGCUAGCUGAUUUUGGGGUACUUCAUAGGAACGAGCUGUCUGGAGCACUCACAGGACUCACCCGGGUACGAAGAUUCCAAC | -1.72
UAACUUUAGAGGAGGAUCUGAUGGAUAUGGCAGUGCACGUGGAUUUGGGGAUGGCUAUAAUGGGUAUGGAGGAGGACCUGGAGGUGGCAA | -1.2
UAACUUGAGAGGAGGAUCUGAUGGAUAUGGCAGUGGACGUGGAUUUGGGGAUGGCUAUAAUGGGUAUGGAGGAGGACCUGGAGGUGGCAA | 1.49

Set 4
Target: Interferon regulatory factor 7, full length, phosphomimetic (IRF7, Homo sapiens, UniProt Q92985, residues 1-503, S471D/S472D/S475D/S476D/S477D/S483D/S484D/S487D)
UniProt Q92985, sequence (whole entry, unmodified, looked up): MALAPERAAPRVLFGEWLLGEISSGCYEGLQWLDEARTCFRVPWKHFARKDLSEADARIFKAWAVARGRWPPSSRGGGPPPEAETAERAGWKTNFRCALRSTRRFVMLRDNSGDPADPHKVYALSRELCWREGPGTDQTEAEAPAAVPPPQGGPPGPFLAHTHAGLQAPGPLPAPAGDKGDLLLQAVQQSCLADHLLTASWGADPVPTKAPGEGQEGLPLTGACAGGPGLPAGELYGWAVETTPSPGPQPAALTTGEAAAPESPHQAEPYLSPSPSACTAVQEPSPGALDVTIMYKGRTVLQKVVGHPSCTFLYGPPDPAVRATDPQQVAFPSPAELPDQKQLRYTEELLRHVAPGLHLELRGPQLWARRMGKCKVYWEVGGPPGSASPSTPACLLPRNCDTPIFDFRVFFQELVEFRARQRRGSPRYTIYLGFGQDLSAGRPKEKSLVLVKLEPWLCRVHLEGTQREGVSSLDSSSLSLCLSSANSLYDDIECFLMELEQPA
Technique: protein-binding microarray
Form: double-stranded DNA, one strand shown
Matrix: in vitro
Concentration: 2200 nM top
Notes: 60-bp whole probe
Added: salmon DNA 0.4 mg/ml
Reference: random background probes
Direction: higher = stronger binding
Shared flanks, not repeated: GCCTAGCAC … GTCTTGATTCGCTTGACGCTGCTG
Strand | fitted relative affinity
GACGGTATCGACGCTGGGGACGTGCTA | -0.286 z-score
TTTGATTTCAGTTTCGATTAGTGCTAG | 8.64 z-score
TTACGTATCCTTTTCCTTTAGTGCTAG | 3.4 z-score
TTAGGTATCGACTTTCGGTAAGTGCTA | 1.99 z-score
GACCGTCTCGGTCTCGGGACGTGCTAG | -0.0794 z-score
TCATCTTTCTGTTTTCTACTGTGCTAG | 5.43 z-score
TTAGATATCAGTCTCGATCAGTGCTAG | 0.0979 z-score
GACGGCCTCGGTATCGGGACGTGCTAG | -0.605 z-score
GGCTTTTTTTTTTTTTTTTTGTGCTAG | 0.619 z-score
TCAACCTTCGAGTCTGCAACTGTGCTA | 0.871 z-score
GACGAATTCGGGACTGGAGACGTGCTA | -0.19 z-score
TCAAACATCTACAATGGCACTGTGCTA | -0.435 z-score
TCTAACTTCCCAATGGTCTTGTGCTAG | 1.16 z-score
TTAGATTTCAGAGTGGATTAGTGCTAG | -0.33 z-score
GACGGTTTCGACACTGGTGACGTGCTA | 2.83 z-score
TCACTTCCCAATTCTCTTACTGTGCTA | 3.4 z-score

A few entries again (set 1):
Strand | E-score
CTGTTCTA | 0.106
CGGCTCAG | -0.311
CAGCTGAA | -0.0702
AACACACG | 0.0631
GCAGCGAA | -0.155
ATAGAGTC | -0.0701
CTTGGTTA | 0.0885
AGAGGAAC | -0.0383
GTCTCAAC | 0.0167
